# Results from different studies.
# Protocols differ between the studies behind these lines. ± gives the spread as reported.
SMILES,test,test system,setting,half-life
Cc1ccc(OCCN)cc1C(=O)N[C@H](C)c1cccc(-c2ccc(O)cc2)c1,,mouse liver microsomes,1 µM,> 0.833 h
COc1ccc(-n2nc(C(=O)NC(=O)OCc3cc(C(=O)O)ccc3OP(=O)(O)O)c3c2C(=O)N(c2ccc(N4CCCCC4=O)cc2)CC3)cc1,,HBSS,"10 µM, 2 h incubation, pH 6.5",> 2 h
N#CC[C@H](C1CCCC1)n1cc(-c2ncnc3[nH]ccc23)cn1,,"children, plasma","oral, first dose",2.3 ± 0.9 h
CCCCCCCCCCCCCCCC(=O)N[C@@H](CCC(=O)NCCCC[C@@H]1NC(=O)[C@H]([C@@H](C)CC)NC(=O)[C@@H](NC(=O)[C@@H]2CCCN2C(=O)[C@H](Cc2ccccc2)NC(=O)[C@H](Cc2c[nH]cn2)NC(=O)[C@@H](NC(=O)[C@H](CC(=O)O)NC(=O)CC(C)C)[C@@H](C)O)CSSC[C@@H](C(=O)N[C@@H](CCCCN)C(N)=O)NC(=O)CNC(=O)[C@H](CCCCN)NC(=O)[C@H](CO)NC(=O)[C@H](CCCNC(=N)N)NC(=O)[C@@H]2CCCN2C(=O)[C@H](CCC(=O)O)NC(=O)[C@H](Cc2ccccc2)NC1=O)C(=O)O,,"healthy volunteers, plasma","subcutaneous, 45 mg single, lyophilised formulation",33 ± 18.4 h
O=C1CC2(CCCC2)CC(=O)N1CCCCN1CCN(c2ncccn2)CC1,substrate depletion,phenobarbital/β-naphthoflavone-induced rat liver microsomes,"1 µM, pH 7.4, 37 °C, added: NADPH",0.055 h
O=C1Nc2c(C(F)(F)F)cccc2[C@@]1(c1ccc(O)cc1)N1CC(F)(F)C(F)(F)C1,,simulated gastric fluid with pepsin,"100 µM, pH 1.2, 37 °C",0.167 to 1.28 h
Cc1c(C(=O)O)ccc2c3n(nc12)[C@@H]1[C@H](C3)N(CC2CC2)[C@@]2(C(=O)Nc3cc(Cl)ccc32)[C@H]1c1cccc(Cl)c1F,,"cancer patients, plasma","oral, 45 mg day 1 every 3 weeks, geometric mean, cycle 1",42 h
O=c1c2cc(Cl)ccc2[nH]c(=S)n1Cc1cccnc1,plasma stability,human plasma,,> 6.22 h
CC1=NN(/C(=N/c2nnc(C)s2)Nc2ccc(C)c(C)c2)C(c2cc(F)c(F)c(F)c2)S1 (stereo not drawn),plasma stability,rat plasma,,0.472 h
Cn1c(=O)n(C2CCC(=O)NC2=O)c2cccc(C#CCOC3CCN(C[C@H]4CC[C@H](n5cc(NC(=O)c6cnn7ccc(N8C[C@H]9C[C@@H]8CO9)nc67)c(C(F)F)n5)CC4)CC3)c21 (stereo partly drawn),H/D exchange,,"0.5 µM, pH 7.8",2.4 h
N#Cc1ccc(Nc2nc(N)cc(Oc3c(F)cc(-c4ccc(C#N)cc4)cc3F)n2)cc1,,human liver microsomes,1 µM,1.24 h
CCOC(=O)c1ccc(N)cc1,metabolic stability,human liver microsomes,,0.333 h
OCc1ccc(-c2nn(Cc3ccccc3)c3ccccc23)o1,,mouse liver microsomes,added: NADH,0.0467 h
CC(C)[N+](C)(CCOC(=O)C1c2ccccc2Oc2ccccc21)C(C)C,,CD-1 mouse whole blood,5 µM,0.951 h
COCCOc1cnc2ccn([C@H](C)c3nnc4c(F)cc(-c5cnn(C)c5)cn34)c(=O)c2c1,,"patients, plasma","oral, 200 mg once daily, day 1",7 h
NC1CCc2nc(-c3ccncc3)nc(Nc3cccc(F)c3)c2C1 (stereo not drawn),,mouse liver microsomes,"4.6 µM, pH 7.4",> 1 h
C=C1CN2CCC[C@@]2(COc2nc(N3CCN(C(=O)/C=C/c4cc(CNC)c(C)cn4)C[C@@H]3C)c3cc(Cl)c(-c4nc(N)cc(C)c4C(F)(F)F)c(F)c3n2)C1,,,"1 µM, pH 7.4, added: 5 mM cysteine",> 9 h
N#C/C(=C\c1ccccc1)c1cnccn1,,,pH 7.4,0.12 h
COC(=O)[C@H](N)CSN=O,,PBS,"10 µM, pH 3.25, room temperature, dark",1.6 ± 0.198 h
CC(C)C[C@H](NC(=O)[C@@H](N)[C@@H](C)O)C(=O)N[C@@H](CCC(N)=O)C(=O)N1CCC[C@H]1C(=O)N1CCC[C@H]1C(=O)N[C@@H](C)C(=O)N[C@@H](CO)C(=O)N[C@@H](CO)C(=O)N[C@@H](CCCNC(=N)N)C(=O)N[C@H](CCCNC(=N)N)C(=O)N[C@@H](CCCNC(=N)N)C(=O)N[C@@H](Cc1c[nH]cn1)C(=O)N[C@@H](Cc1ccccc1)C(=O)N[C@@H](Cc1c[nH]cn1)C(=O)N[C@@H](Cc1c[nH]cn1)C(=O)N[C@@H](C)C(=O)N[C@@H](CC(C)C)C(=O)N1CCC[C@H]1C(=O)N1CCC[C@H]1C(=O)N[C@H](C)C(=O)N[C@@H](CCCNC(=N)N)C(=O)O,LC-MS,mouse plasma 100%,37 °C,> 2 h
NC(=O)Nc1ccc(OC(F)F)cc1,,PBS with 10% acetonitrile,"250 µM, pH 7.4, added: GSH 5 mM",≥ 240 h
FC(F)=Cc1cc(C(F)(F)F)cc(C(F)(F)F)c1,"reactivity with N-α-acetyl-lysine, HPLC-MS",BBS buffer with acetonitrile,"1 mM, pH 10.2",1.3 h
C[C@H]1CN(C(=O)CC#N)[C@]12CCN(c1ncnc3[nH]ccc13)C2,,"healthy Japanese males, plasma","oral, 25 mg single dose",3.8 h
CC(=O)O[C@H]1C(=O)[C@@]2(C)[C@H]([C@H](OC(=O)c3ccccc3)[C@]3(O)C[C@H](OC(=O)[C@H](OC(=O)OCc4cc(C(=O)O)ccc4OP(=O)(O)O)[C@@H](NC(=O)c4ccccc4)c4ccccc4)C(C)=C1C3(C)C)[C@]1(OC(C)=O)CO[C@@H]1C[C@@H]2O,,simulated gastric fluid,"10 µM, 2 h incubation, pH 1.2",> 2 h
CC(C)C[C@H](NC(=O)[C@H](Cc1ccc(O)cc1)NC(=O)[C@H](CCCCN)NC(=O)[C@H](CO)NC(=O)[C@H](CCCNC(=N)N)NC(=O)[C@H](CCC(N)=O)NC(=O)[C@H](CO)NC(=O)[C@@H]1CCCN1C(=O)[C@H](CCCNC(=N)N)NC(=O)[C@H](CCCCN)NC(=O)[C@H](CCC(N)=O)NC(=O)c1ccc2c(c1)C(=O)OC21c2ccc(O)cc2Oc2cc(O)ccc21)C(N)=O,CE-LIF,HeLa cytosolic lysate,37 °C,0.0333 ± 0.00333 h
O=C(COc1ccc(N2C(=O)[C@@H]3[C@@H]4C=C[C@@H]([C@H]5C[C@@H]45)[C@@H]3C2=O)cc1)c1cc(Cl)cc(Cl)c1,,CD-1 mouse plasma,"2 µM, 37 °C",> 24 h
C[C@@H]1CCC[C@H](n2cnc(-c3cc(Cl)ccc3-n3cc(Cl)nn3)cc2=O)c2cc(ccn2)-c2c(cnn2C(F)F)NC1=O,,rabbit,,2.5 ± 0.2 h
O=c1c(-c2ccc(O)cc2)coc2cc(O)ccc12,substrate depletion,phenobarbital/β-naphthoflavone-induced rat liver microsomes,"1 µM, pH 7.4, 37 °C, added: NADPH",0.0975 h
CCCCCCCCCC(=O)N[C@@H](Cc1c[nH]c2ccccc12)C(=O)N[C@H](CC(N)=O)C(=O)N[C@@H](CC(=O)O)C(=O)N[C@@H]1C(=O)NCC(=O)N[C@@H](CCCN)C(=O)N[C@@H](CC(=O)O)C(=O)N[C@H](C)C(=O)N[C@@H](CC(=O)O)C(=O)NCC(=O)N[C@H](CO)C(=O)N[C@@H]([C@H](C)CC(=O)O)C(=O)N[C@@H](CC(=O)c2ccccc2N)C(=O)O[C@@H]1C,,mouse plasma,"1 µM, up to 240 min, pH 7.4, 37 °C",> 4 h
CC1(C)NC(=O)N(c2ccc([N+](=O)[O-])c(C(F)(F)F)c2)C1=O,substrate depletion,phenobarbital/β-naphthoflavone-induced rat liver microsomes,"1 µM, pH 7.4, 37 °C, added: NADPH",1.05 h
Ic1ncco1,,PBS with 5% acetonitrile,"250 µM, pH 7.4, no glutathione",60 h
CCCCCN(C)CCC(O)(P(=O)(O)O)P(=O)(O)OP(=O)(O)OC[C@H]1O[C@@H](n2ccc(N)nc2=O)C(F)(F)[C@@H]1O (stereo partly drawn),hydrolysis,HEPES buffer,"pH 7.4, 37 °C",7.7 h
CCCCC[C@H](O)CC[C@@H]1[C@H]2Cc3cccc(OCC(=O)O)c3C[C@H]2C[C@H]1O,LC-MS/MS,"Japanese PAH patients, female, plasma","inhaled, 54 µg, geometric mean",0.74 h
O=C(Oc1coc(CSc2ncccn2)cc1=O)c1ccc([N+](=O)[O-])cc1,,mouse plasma,4 °C,1.28 h
C[C@H](NC(=O)/C(C#N)=C/c1cccc(Br)n1)c1ccccc1,LC-MS/MS,"patients, plasma","oral, 4 mg/kg, cycle 1 day 1",7.1 h
COC(=O)[C@H](N)CSSC[C@@H](N)C(=O)OC,,minipig plasma,"100 µM, 37 °C",0.0367 h
C[C@H]1[C@H]2N(C(=O)CN(C)N2C(=O)NCc2ccccc2)[C@@H](Cc2ccc(OP(=O)(O)O)cc2)C(=O)N1Cc1cccc2cccnc12,,"patients, plasma","intravenous infusion, 280 mg/m2 over 4 h, mean",0.5 h
O=C(Cc1ccc2ccccc2c1)Nc1cc(C2CCC2)[nH]n1,,mouse liver S9,1 µM,0.469 h
O=c1c2ccccc2sn1Cc1ccc(Cl)cc1,,mouse liver microsomes,added: NADPH,< 1 h
N#Cc1cccc(-c2ccc3ncc(-c4cc(F)cc(F)c4)c(N4CCC(N)CC4)c3c2)c1O,,"healthy male, whole blood total radioactivity","oral, 20 mg, geometric mean",21 h
Oc1ccc([C@@H](O)c2cc(-c3ncnc4cc(N5CCOCC5)ccc34)c(F)cc2Cl)nn1,geometric mean,"healthy volunteers, plasma","oral, 100 mg, fasted tablet",3.8 h
CN[C@H](CC(C)C)C(=O)N[C@H]1C(=O)N[C@@H](CC(N)=O)C(=O)N[C@H]2C(=O)N[C@H]3C(=O)N[C@H](C(=O)N[C@H](C(=O)O)c4cc(O)cc(O)c4-c4cc3ccc4O)[C@H](O)c3ccc(c(Cl)c3)Oc3cc2cc(c3O[C@@H]2O[C@H](CO)[C@@H](O)[C@H](O)[C@H]2O[C@H]2C[C@](C)(N)[C@H](O)[C@H](C)O2)Oc2ccc(cc2Cl)[C@H]1O,,"guinea pig, tissue cage fluid","intraperitoneal, 15 mg/kg, single dose",13.7 h

# A few entries again:
SMILES,test,test system,setting,half-life
CCCCCCCCCC(=O)N[C@@H](Cc1c[nH]c2ccccc12)C(=O)N[C@H](CC(N)=O)C(=O)N[C@@H](CC(=O)O)C(=O)N[C@@H]1C(=O)NCC(=O)N[C@@H](CCCN)C(=O)N[C@@H](CC(=O)O)C(=O)N[C@H](C)C(=O)N[C@@H](CC(=O)O)C(=O)NCC(=O)N[C@H](CO)C(=O)N[C@@H]([C@H](C)CC(=O)O)C(=O)N[C@@H](CC(=O)c2ccccc2N)C(=O)O[C@@H]1C,,mouse plasma,"1 µM, up to 240 min, pH 7.4, 37 °C",> 4 h
CC1(C)NC(=O)N(c2ccc([N+](=O)[O-])c(C(F)(F)F)c2)C1=O,substrate depletion,phenobarbital/β-naphthoflavone-induced rat liver microsomes,"1 µM, pH 7.4, 37 °C, added: NADPH",1.05 h
Ic1ncco1,,PBS with 5% acetonitrile,"250 µM, pH 7.4, no glutathione",60 h
CCCCCN(C)CCC(O)(P(=O)(O)O)P(=O)(O)OP(=O)(O)OC[C@H]1O[C@@H](n2ccc(N)nc2=O)C(F)(F)[C@@H]1O (stereo partly drawn),hydrolysis,HEPES buffer,"pH 7.4, 37 °C",7.7 h
